Published values pooled from the literature.
Compare with care: the assays were run in different laboratories.
Target: Cannabinoid receptor 1 (CNR1, Homo sapiens, UniProt P21554)
Sequence of UniProt P21554 (whole entry, looked up): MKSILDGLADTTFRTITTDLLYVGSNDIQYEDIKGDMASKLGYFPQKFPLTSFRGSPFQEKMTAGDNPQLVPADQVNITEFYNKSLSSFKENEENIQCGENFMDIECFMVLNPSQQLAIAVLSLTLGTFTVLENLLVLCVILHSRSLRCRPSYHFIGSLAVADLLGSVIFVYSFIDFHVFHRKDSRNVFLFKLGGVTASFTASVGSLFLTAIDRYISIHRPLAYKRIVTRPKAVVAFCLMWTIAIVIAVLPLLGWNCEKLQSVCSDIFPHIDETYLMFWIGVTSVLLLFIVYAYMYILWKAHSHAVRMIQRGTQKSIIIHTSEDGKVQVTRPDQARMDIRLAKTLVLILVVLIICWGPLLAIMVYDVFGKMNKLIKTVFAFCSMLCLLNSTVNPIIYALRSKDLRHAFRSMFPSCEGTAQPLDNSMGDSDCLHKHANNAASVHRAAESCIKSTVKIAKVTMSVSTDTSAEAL

SMILES = O=S(=O)(NC1CCN(c2ncnc3c2nc(-c2ccccc2Cl)n3-c2ccc(C(F)(F)F)nc2)CC1)c1ccc(F)c(F)c1; assay = binding, [3H]CP55940 displacement; scale = relative to: Ki CB2 over Ki CB1; quantity = selectivity ratio; value = > 600
SMILES = COc1cc(Cl)c(C(=O)N[C@@H](CN[C@H]2CC[C@@H](N)CC2)Cc2ccc(C#N)cc2)cc1-c1ccc(CN[C@H](C)c2ccc(C)cc2)o1; assay = agonist response, antagonist; system = human cells; setting = 10 µM, CB1 antagonist; quantity = inhibition; value = 16%
SMILES = C[C@H](NC(=O)C(C)(C)Oc1ccc(C(F)(F)F)cn1)[C@@H](Cc1ccc(Cl)cc1)c1cccc(C#N)c1; assay = cAMP, antagonist, cell-based GPCR; setting = 10 µM; scale = relative to: control; quantity = response; value = > 75%
SMILES = C/C(=C/CC[C@]1(C)[C@H]2CC3[C@H](C2)[C@]31C)CO; assay = radioligand binding; setting = 10 µM; quantity = displacement; value = < 16%
SMILES = O=S(=O)(NC1CCN(c2ncnc3c2nc(-c2ccccc2Cl)n3-c2ccc(F)cc2)CC1)c1ccccc1F; assay = binding, [3H]CP55940 displacement; scale = relative to: Ki CB2 over Ki CB1; quantity = selectivity ratio; value = > 3000
SMILES = CC[C@]12CCCN3CCc4c([nH]c5ccccc45)[C@]31N(Cc1cn(Cc3ccccc3)nn1)C(=O)C2; assay = beta-arrestin recruitment, antagonist, PathHunter chemiluminescence; setting = 20 µM, with: agonist at EC80; quantity = inhibition; value = 48%
SMILES = O=S(=O)(NC1CCN(c2ncnc3c2nc(-c2ccccc2Cl)n3-c2ccc(Cl)cc2)CC1)c1ccc(F)cc1F; assay = binding, [3H]CP55940 displacement; scale = relative to: Ki CB2 over Ki CB1; quantity = selectivity ratio; value = > 5000
SMILES = CCCC[C@H](NC(=O)[C@H](C)c1c(C)[nH]c2ccc(O)cc12)c1ncc(-c2cc3ccccc3nc2OC)[nH]1; quantity = Hill coefficient; value = 5.3
SMILES = O=c1c(NCc2ccccc2)c(Nc2ccc(Cl)cc2)c1=O; assay = allosteric modulator, FLIPR calcium; setting = up to 10 µM, with: CP55,940; quantity = activity; value = inactive

For quick reference, copied from above:
SMILES = O=S(=O)(NC1CCN(c2ncnc3c2nc(-c2ccccc2Cl)n3-c2ccc(C(F)(F)F)nc2)CC1)c1ccc(F)c(F)c1; assay = binding, [3H]CP55940 displacement; scale = relative to: Ki CB2 over Ki CB1; quantity = selectivity ratio; value = > 600
